# Measurements collected from several papers.
# Protocols differ between the studies behind these lines. Several values in a cell are separate wells, animals, samples, runs or records.
# JAK2: Tyrosine-protein kinase JAK2 (JAK2, Homo sapiens, UniProt O60674)
SMILES,target,test,system,conditions,inhibition
CCn1cc(C(=O)O)c(=O)c2c(N)c(F)c(NC3CCCCC3)cc21,JAK2,kinase activity,,"0.1 µM, with: ATP at Km",9.2%
CS(=O)(=O)Nc1cccc(-c2csc3cnc(Nc4ccc(N5CCN(CCCCCOc6cccc7c6C(=O)N(C6CCC(=O)NC6=O)C7=O)CC5)cc4)nc23)c1 (stereo not shown),"Tyrosine-protein kinase JAK2, JH2 domain (JAK2, Homo sapiens, UniProt O60674)","probe labelling, inhibitor, KiNativ chemoproteomics",MOLT-4,1 µM,26.2%
Cc1cnc2nc1Nc1cccc(c1)COCCCCOCc1cc(ccc1OCCN1CCCC1)N2,JAK2,"inhibitor, Z'-LYTE kinase",,10000 nM,99.1% and 100% and 93.3%
C=CC(=O)Nc1cccc(-c2cnc3[nH]cc(C(=O)NC(C)(C)C)c3n2)c1,JAK2,kinase activity,,0.1 µM,93%
Cc1cccc(O[C@H]2CCC[C@@H](C(C)CNCc3ccncc3)C2)c1 (relative stereo),JAK2,"kinase activity, kinome panel screening",,10 µM,-11%
Cc1cnc2nc1Nc1cccc(c1)COCc1cc(ccc1OCCN1CCOCC1)N2,JAK2,"inhibitor, Z'-LYTE kinase",,4.115 nM,16.8% and 14.2% and 13.1%
C=CC(=O)N1Cc2nc(-c3cc(-c4cc(Cl)cnc4Cl)c(F)cc3F)n(-c3ccncn3)c2C1,JAK2,"cell-free assay, inhibitor",,1 µM,3.5%
COc1ccc(C(=O)/C=C/c2ccccc2-c2c[nH]c3ccc(C#N)cc23)c(O)c1,JAK2,"enzyme activity, inhibitor",,20 µM,-7%
Cc1cnc2nc1Nc1cccc(c1)COC/C=C/COCc1cc(ccc1OCCN1CCOCC1)N2,JAK2,"inhibitor, Z'-LYTE kinase",,62.5 nM,99.5% and 98.1% and 98.8%
NC(=O)[C@@H](O)C[C@H]1CCc2sc3ncnc(O[C@H]4CC[C@H](N5CCOCC5)CC4)c3c21,JAK2,"enzyme activity, inhibitor",,10 µM,1%
Cc1cnc2nc1Nc1cc(F)cc(c1)COC/C=C/COCc1cc(ccc1OCCN1CCCC1)N2,JAK2,"inhibitor, Z'-LYTE kinase",,37.04 nM,78.5% and 76.1% and 81.8%
CN1CCN(Cc2ccc(-c3ccc(CO[C@H]4CCC[C@@H]4NC(=O)c4cc(-c5cnn(C)c5)cnc4N)cc3)cc2)CC1,"Tyrosine-protein kinase JAK2, JH1 (JAK2, Homo sapiens, UniProt O60674)","enzyme activity, inhibitor",,0.1 µM,4%
C[C@H]1CN(C(=O)c2cn(-c3ccnc(N)n3)c3cc(C#CC4(O)CCCCC4)ccc23)CCN1,JAK2,"enzyme activity, inhibitor, FRET",,1 µM,3%

# A few entries again:
SMILES,target,test,system,conditions,inhibition
C=CC(=O)Nc1cccc(-c2cnc3[nH]cc(C(=O)NC(C)(C)C)c3n2)c1,JAK2,kinase activity,,0.1 µM,93%
